Measured values of several laboratories.
Each line is one published result; not all experiments were run side by side. Several values in a cell are separate wells, animals, samples, runs or records. Numbers after ± are the reported error.
Sequence of UniProt P04062 (whole entry, unmodified, looked up): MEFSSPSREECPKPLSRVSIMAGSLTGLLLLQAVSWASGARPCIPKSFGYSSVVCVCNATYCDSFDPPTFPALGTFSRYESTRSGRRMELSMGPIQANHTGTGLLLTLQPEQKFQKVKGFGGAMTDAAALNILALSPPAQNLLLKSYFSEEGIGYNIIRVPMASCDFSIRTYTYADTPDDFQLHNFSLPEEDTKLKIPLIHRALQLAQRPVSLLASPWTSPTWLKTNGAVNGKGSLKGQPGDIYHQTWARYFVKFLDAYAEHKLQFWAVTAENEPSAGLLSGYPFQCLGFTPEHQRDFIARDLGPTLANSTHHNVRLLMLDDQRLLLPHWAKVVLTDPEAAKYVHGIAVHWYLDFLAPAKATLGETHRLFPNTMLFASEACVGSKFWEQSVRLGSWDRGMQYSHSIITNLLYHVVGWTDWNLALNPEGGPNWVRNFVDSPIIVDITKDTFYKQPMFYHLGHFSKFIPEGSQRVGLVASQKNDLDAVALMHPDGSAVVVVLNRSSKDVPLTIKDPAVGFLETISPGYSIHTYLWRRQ

CC(=O)Nc1nc(-c2cccc3ccccc23)cs1  relative translation (Trypanosoma cruzi; reporter mRNA translation, inhibitor, item: capped polyadenylated Renilla luciferase mRNA; cell-free extract; concentration not given; reference: control RNA): 104%
COc1cccc(OC)c1-c1cc(C(=O)NC2(C(=O)O)C3CC4CC(C3)CC2C4)nn1-c1ccc(C(=O)N(C)CCCN(C)CCCN(C)C(=O)[C@H](CCCCNC(=O)[C@H](CC(C)C)NC(=O)C2OC2C(=O)O)NC(=O)CN2CCN(CC(=O)[O-])CCN(CC(=O)[O-])CCN(CC(=O)[O-])CC2)cc1C(C)C.[177Lu+3] (mixture of isomers)  tissue uptake (mouse HT-29 xenograft, small intestine; 72 h post injection, biodistribution): 0.282 %ID/g
CNc1cc(C)c(C(N)=O)cn1  concentration at time (Han Wistar rats, male, plasma; oral, 30 mg/kg, 2.00 h): 63.3 µM
CC[C@H](C)[C@H](NC(=O)[C@H](CC(N)=O)NC(=O)[C@@H](N)CCSC)C(=O)N[C@@H](CCSC)C(=O)N[C@@H](CC(=O)O)C(=O)N[C@@H](Cc1ccccc1)C(=O)N[C@@H](CC(N)=O)C(=O)N[C@H](C(=O)N[C@@H](CCCCN)C(=O)N[C@@H](CCCCN)C(=O)N[C@@H](CC(C)C)C(=O)N[C@@H](C)C(=O)N[C@@H](C)C(=O)N[C@@H](CC(=O)O)C(=O)N[C@@H](C)C(=O)NCC(=O)N[C@H](C(=O)N[C@@H](Cc1c[nH]c2ccccc12)C(=O)N[C@@H](CC(C)C)C(=O)N[C@@H](CO)C(=O)N[C@@H](CCCNC(=N)N)C(=O)N[C@@H](C)C(=O)N[C@H](C(=O)N[C@@H](CCC(N)=O)C(=O)N[C@@H](Cc1ccccc1)C(=O)N[C@H](C(=O)N[C@@H](CCC(=O)O)C(=O)N[C@@H](CCC(=O)O)C(=O)N[C@@H](CCCCN)C(=O)N[C@@H](CC(C)C)C(=O)NCC(=O)N[C@@H](CCC(N)=O)C(=O)N[C@@H](C)C(N)=O)[C@@H](C)O)C(C)C)[C@@H](C)O)C(C)C  ΔG of binding (circular dichroism titration; 25% DOPS/75% DOPC liposomes; 50 µM, pH 7.4, 20 °C): -6.9 kcal/mol
CN1CCC[C@]1(C)/C=C/S(=O)(=O)NC(=O)Nc1c2c(cc3c1CCC3)CC=C2  Cmax at first steady-state dose (human, plasma; oral, 50 mg twice daily of parent drug, day 14, metabolite of dosed drug): 27200 ng/mL
Cc1c(Cc2ccc(Cl)c(O[C@@H](C)C(=O)O)c2)c2ccc(C(=O)N[C@@H](C)c3ccc(C(C)(C)C)cc3)cc2n1CC1CC1  half-life (human liver microsomes; 1 µM, together with: microsomes 1 mg/mL): > 1 h
C(=N\Nc1nc(Nc2ccccc2)nc(N2CCOCC2)n1)/c1c[nH]c2ccccc12  relative translation (Trypanosoma cruzi; reporter mRNA translation, inhibitor, item: capped polyadenylated Renilla luciferase mRNA; cell-free extract; concentration not given; reference: control RNA): 100%
OC[C@@H]1[C@@H](O)[C@H](O)[C@@H](O)CN1CCCCOCCC12CC3CC(CC(C3)C1)C2  IC50 (Lysosomal acid glucosylceramidase (GBA1, Homo sapiens, UniProt P04062, R534H); inhibitor, 4MU-β-D-glucopyranoside; together with: 4MU-β-D-glucopyranoside): 1290 nM
CN(C)S(=O)(=O)c1ccc(S(=O)(=O)N2CCC(n3c(=O)[nH]c4ccccc43)CC2)cc1  relative body weight (mouse; dose not given, day 2; reference: day 0): 97% and 91% and 99% and 94% and 95%
CCCC[C@H](OC(C)=O)c1ccccc1C(=O)O  blood concentration (beagle dogs, both sexes, whole blood; intravenous, 1.5 mg/kg single dose, 1 min): 3950 ± 591 ng/mL
O=S(=O)(NCc1ccncc1)c1ccc(C2CCCCC2)cc1  swim speed change (CK-p25 mouse; 0.3 mg/kg; reference: vehicle): 15 ± 3 cm/s
COc1ccnc(C(=O)N[C@H]2COC(=O)[C@H](Cc3ccccc3)[C@@H](OC(=O)C(C)C)[C@H](C)OC2=O)c1O  KFoc (soil adsorption; clay soil; pH 7.6, organic carbon 1.7 %): 7070 mL/g
N=C(N)NCCC[C@@H]1NC(=O)[C@H](CO)NC(=O)[C@@H](NC(=O)[C@H](CO)NC(=O)[C@H](CO)NC(=O)[C@H](Cc2c[nH]c3ccccc23)NC(=O)CNC(=O)[C@H](CO)NC(=O)[C@@H](N)Cc2c[nH]c3ccccc23)CSSC[C@@H](C(=O)NCC(=O)O)NC(=O)[C@H](CO)NC1=O  AUC(0-inf) (patients, plasma; intravenous, 5 mg/kg, thrice weekly, mean): 379 ng·h/mL
Cc1cccc(O[C@H]2CCC[C@@H](C(C)CNCc3ccncc3)C2)c1 (relative stereo)  body weight (C57BL/6 wild-type mouse pups; 25 mg/kg, one month): 1.7 g and 1.5 g and 1.6 g and 1.2 g
C#CCOCCOCCOCCOCCn1cc(C(ONC(=O)/C=C/C(C)=C/C2(C)Oc3cc(N(C)C)ccc3C2=O)(c2ccc(C)cc2)c2ccc(C)cc2)nn1 (stereo not drawn)  release from prodrug hydrolysis (HPLC; aqueous buffer, 20% acetonitrile; concentration not given, 164 min, pH 3; reference: initial prodrug amount): 58%
C[C@H](C(=O)O)c1ccc(-c2ccccc2)c(F)c1  peak area change (HPLC; reference solution; concentration not given, 12 h, room temperature, solution stability): ≤ 2%
CCn1nc(Cl)c2c1-c1cnc(N)c(c1)O[C@H](C)c1cc(F)ccc1-c1nn(C)cc1C2  free plasma concentration (Balb/c nude mouse female, plasma; 0.06 mg/kg twice daily for 5 days, 12 h): 0.00013 µM
CC(=O)N([O-])CCCCCNC(=O)CCC(=O)N([O-])CCCCCNC(=O)CCC(=O)N([O-])CCCCCN.[89Zr+4]  tracer uptake (mouse, fat; 24 h): 0.03 %ID/g

Repeated from above:
C#CCOCCOCCOCCOCCn1cc(C(ONC(=O)/C=C/C(C)=C/C2(C)Oc3cc(N(C)C)ccc3C2=O)(c2ccc(C)cc2)c2ccc(C)cc2)nn1 (stereo not drawn)  release from prodrug hydrolysis (HPLC; aqueous buffer, 20% acetonitrile; concentration not given, 164 min, pH 3; reference: initial prodrug amount): 58%
CN1CCC[C@]1(C)/C=C/S(=O)(=O)NC(=O)Nc1c2c(cc3c1CCC3)CC=C2  Cmax at first steady-state dose (human, plasma; oral, 50 mg twice daily of parent drug, day 14, metabolite of dosed drug): 27200 ng/mL
